Assay results of several laboratories.
Lines come from different studies, so protocols differ. Values joined by “and” are separate records of one study, mostly repeats; a detail may differ. ± marks the error that the study gave.
UniProt P49760, sequence (whole entry, looked up): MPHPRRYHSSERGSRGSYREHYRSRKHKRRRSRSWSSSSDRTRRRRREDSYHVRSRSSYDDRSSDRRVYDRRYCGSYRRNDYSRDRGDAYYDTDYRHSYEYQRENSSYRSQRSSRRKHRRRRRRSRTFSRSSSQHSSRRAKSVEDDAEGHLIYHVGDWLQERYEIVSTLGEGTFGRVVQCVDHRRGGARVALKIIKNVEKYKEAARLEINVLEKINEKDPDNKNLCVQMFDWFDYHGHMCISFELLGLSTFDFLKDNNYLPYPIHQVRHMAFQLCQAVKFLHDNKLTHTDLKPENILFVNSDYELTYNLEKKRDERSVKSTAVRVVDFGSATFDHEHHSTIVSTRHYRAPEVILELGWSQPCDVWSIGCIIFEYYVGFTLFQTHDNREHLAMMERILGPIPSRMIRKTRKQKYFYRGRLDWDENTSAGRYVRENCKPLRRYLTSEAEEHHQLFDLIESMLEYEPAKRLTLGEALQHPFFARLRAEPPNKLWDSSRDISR

O=C(Nc1cccc(OS(=O)(=O)c2ccc(Cl)cc2)c1)c1ccc2ncccc2c1 — viability (HEK-293T; MTT; up to 100 µM): not toxic
CC[C@H](C)[C@H](NC(=O)[C@H](CCSC)NC(=O)[C@H](Cc1c[nH]cn1)NC(=O)[C@@H](NC(=O)[C@H](CC(C)C)NC(=O)[C@H](CO)NC(=O)[C@H](CO)NC(=O)[C@H](CCCCN)NC(=O)[C@H](Cc1ccc(O)cc1)NC(=O)[C@H](CCCCN)NC(=O)[C@H](CC(N)=O)NC(=O)[C@H](CO)NC(=O)[C@H](CCCCN)NC(=O)[C@H](CC(C)C)NC(=O)[C@@H](NC(=O)[C@H](CC(C)C)NC(=O)[C@H](CC(C)C)NC(=O)[C@H](CCSC)NC(=O)[C@H](CCCNC(=N)N)NC(=O)[C@H](CCCCN)NC(=O)[C@H](CCCNC(=N)N)NC(=O)[C@@H](N)Cc1c[nH]c2ccccc12)[C@@H](C)O)C(C)C)C(=O)N[C@@H](CC(C)C)C(=O)NCC(=O)N[C@@H](CC(C)C)C(=O)N[C@@H](CO)C(=O)N[C@@H](CC(C)C)C(=O)N[C@@H](CCC(N)=O)C(=O)N[C@H](C(=O)N[C@@H](CS)C(=O)N[C@@H](CC(C)C)C(=O)N[C@H](C(=O)N[C@@H](CCCCN)C(=O)O)[C@@H](C)O)[C@@H](C)CC — CC50 (HaCaT; cell viability, MTT): 163 µM
Oc1ccc(C(c2ccc(O)cc2)(C(F)(F)F)C(F)(F)F)cc1 — viable cells (HepG2 spheroids, dissociated; annexin V-FITC/PI flow cytometry; 0.10 µM, 96 h): 28.5 ± 8.59%
O=c1ccc2ccccc2o1 — point of departure (HepG2; item: heme oxygenase 1; 6 h): 828 µM
CC(=O)OC[C@H]1O[C@@H](Oc2cc(O)cc3cc4oc(C)cc(=O)c4c(O)c23)[C@H](O)[C@@H](O)[C@@H]1O — cell viability (HepaRG co-cultured with HK-2; MTT; 266.67 µM, 24 h; relative to: untreated control): 128 ± 15%
CC(C)(c1ccc(O)cc1)c1ccc(O)cc1 — early apoptotic cells (HepG2 spheroids, dissociated; annexin V-FITC/PI flow cytometry; 0.1 µM, 24 h): 2.71 ± 1.2%
O=c1[nH]c(=O)n([C@H]2C[C@H](O)[C@@H](CO)O2)cc1/C=C/Br — minimum cytotoxic concentration (HEL; cell morphology): > 300 µM
O=C(O)C(F)(F)C(F)(F)C(F)(F)C(F)(F)C(F)(F)C(F)(F)C(F)(F)C(F)(F)C(F)(F)F — LDH release (hTERT-RPTEC-OAT1; concentration not given, Transwell, basolateral-to-apical addition): 9.86 mU/mL and 12.1 mU/mL and 12.3 mU/mL and 15 mU/mL
CC[C@H](C)[C@H](NC(=O)[C@@H](NC(=O)[C@H](Cc1ccccc1)NC(=O)CNC(=O)[C@H](CCC(N)=O)NC(=O)[C@H](CCCCN)NC(=O)[C@H](C)N)C(C)C)C(=O)N[C@@H](Cc1ccc(O)cc1)C(=O)N[C@@H](CCCNC(=N)N)C(=O)N[C@H](C(=O)N[C@@H](CCCNC(=N)N)C(=O)N[C@H](C(=O)N[C@@H](CCCNC(=N)N)C(=O)N[C@@H](CCCNC(=N)N)C(=O)NCC(=O)N[C@@H](CC(N)=O)C(=O)N[C@@H](CCCNC(=N)N)C(=O)N[C@@H](CCCCN)C(N)=O)C(C)C)C(C)C — hemolysis (rat erythrocytes; 200 µM, 60 min, 37 °C): 0.9 ± 0.2%
CC[C@H](C)[C@H](NC(=O)[C@H](CC(=O)O)NC(=O)CNC(=O)[C@H](CCCCN)NC(=O)[C@H](C)NC(=O)[C@H](CS)NC(=O)[C@H](CC(C)C)NC(=O)[C@H](CCCNC(=N)N)NC(=O)[C@H](CO)NC(=O)[C@H](Cc1ccccc1)NC(=O)[C@H](Cc1ccc(O)cc1)NC(=O)[C@H](C)NC(=O)[C@H](CC(C)C)NC(=O)[C@H](CC(C)C)NC(=O)[C@H](CC(C)C)NC(=O)[C@H](CC(C)C)NC(=O)[C@@H]1CCCN1C(=O)[C@@H](N)CCCNC(=N)N)C(=O)N1CCC[C@H]1C(=O)N1CCC[C@H]1C(=O)N1CCC[C@H]1C(=O)N[C@@H](CC(C)C)C(=O)N[C@@H](CCCNC(=N)N)C(=O)N[C@@H](C)C(=O)N[C@@H](CC(C)C)C(=O)N1CCC[C@H]1C(=O)N[C@@H](CCCNC(=N)N)C(=O)N[C@@H](Cc1ccc(O)cc1)C(=O)N[C@@H](CCCNC(=N)N)C(=O)N[C@@H](CC(C)C)C(=O)N[C@@H](CC(C)C)C(=O)N[C@@H](CCCNC(=N)N)C(=O)N[C@@H](CC(=O)O)C(=O)N[C@@H](CC(C)C)C(=O)N1CCC[C@H]1C(=O)N[C@@H](CCCNC(=N)N)C(=O)N[C@@H](CC(C)C)C(=O)N[C@@H](CC(C)C)C(=O)N[C@@H](CCCNC(=N)N)C(=O)O — CC50 (HaCaT; cell viability, MTT; 24 h): 418 µM
CC1=C(O)C(=O)C=C2C1=CC=C1[C@@]2(C)CC[C@@]2(C)[C@@H]3C[C@](C)(C(=O)O)CC[C@]3(C)CC[C@]12C — apoptotic cells (COS-7; 3 µM, 24 h, 0.1% DMSO, unit not given; relative to: vehicle control): 1.03 ± 0.27
CCCCCCCCCCOc1cc2c(O)c(C(=O)OCC)cnc2cc1OCC — IC50 (HEK293T; cytotoxicity; 3 days): > 100 µM
O=C1c2ccccc2C(=O)c2ccccc21 — cell viability (HepaRG co-cultured with HK-2; MTT; 16.67 µM, 24 h; relative to: untreated control): 85.5 ± 10.6%
Nc1nc(O)c2ncn(COC(CO)CO)c2n1 — CC50 (CRFK; MTS): > 100 µM
CCc1cccc(C)c1N(C(=O)CCl)C(C)COC (stereo not drawn) — IC10 (MCF7 AREc32 cells; cell viability, IncuCyte imaging; 24 h, freely dissolved concentration): 138 µM
CC(C)C[C@H](NC(=O)[C@@H](NC(=O)[C@H](CCCNC(=N)N)NC(=O)[C@H](CCCCN)NC(=O)[C@H](CCCCN)NC(=O)CNC(=O)CNC(=O)CNC(=O)c1ccc2c(c1)C(=O)OC21c2ccc(O)cc2Oc2cc(O)ccc21)[C@@H](C)O)C(=O)N[C@@H](CCCNC(=N)N)C(=O)N[C@@H](CCCCN)C(=O)N[C@@H](CC(N)=O)C(=O)N[C@@H](CC(=O)O)C(=O)N[C@@H](CCCNC(=N)N)C(=O)N[C@@H](CCCCN)C(=O)N[C@@H](CCCCN)C(=O)N[C@@H](CCCNC(=N)N)C(=O)N[C@@H](CS)C(N)=O — transport ratio (hCMEC/D3 monolayers; BBB permeability, Transwell, item: CF-labelled compound; EGM-2 medium; concentration not given, 2 h, apical to basal; relative to: fluorescence added apically): 5.3%
CC[C@H](C)[C@H](NC(=O)[C@H](CCCCN)NC(=O)[C@H](CC(C)C)NC(=O)[C@H](CCSC)NC(=O)[C@H](CO)NC(=O)[C@H](C)NC(=O)CNC(=O)[C@H](CCCCN)NC(=O)[C@H](CCCCN)NC(=O)[C@H](CC(N)=O)NC(=O)CNC(=O)[C@H](CCCCN)NC(=O)[C@H](CC(C)C)NC(=O)[C@H](CCCNC(=N)N)NC(=O)[C@@H](NC(=O)[C@H](CC(C)C)NC(=O)[C@H](Cc1ccc(O)cc1)NC(=O)[C@H](CCCCN)NC(=O)[C@H](C)NC(=O)[C@H](CCCCN)NC(=O)[C@@H]1CCCN1C(=O)[C@H](CCCCN)NC(=O)CNC(=O)[C@H](CCCNC(=N)N)NC(=O)[C@H](CC(C)C)NC(=O)[C@H](CCC(N)=O)NC(=O)[C@@H](N)Cc1ccccc1)C(C)C)C(=O)N[C@@H](CC(C)C)C(=O)N[C@@H](C)C(=O)N[C@H](C(=O)N[C@H](C(=O)N[C@@H](CCCNC(=N)N)C(=O)N1CCC[C@H]1C(=O)N[C@H](C(=O)N[C@@H](CCCCN)C(=O)N[C@@H](CCC(N)=O)C(=O)N[C@@H](CO)C(=O)N[C@@H](Cc1ccccc1)C(=O)N1CCC[C@H]1C(=O)N[C@@H](CO)C(=O)N[C@@H](CC(C)C)C(=O)N1CCC[C@H]1C(=O)O)[C@@H](C)O)[C@@H](C)O)[C@@H](C)O — CC50 (HaCaT; cell viability, MTT): 76 µM
CC[C@H](C)[C@H](NC(=O)[C@H](CCCCN)NC(=O)[C@@H]1CCCN1C(=O)[C@H](CCCNC(=N)N)NC(=O)[C@H](Cc1ccc(O)cc1)NC(=O)[C@H](CCCNC(=N)N)NC(=O)[C@H](CCCNC(=N)N)NC(=O)[C@@H](NC(=O)[C@H](CCCNC(=N)N)NC(=O)[C@H](CCCNC(=N)N)NC(=O)[C@H](CC(C)C)NC(=O)[C@H](Cc1ccccc1)NC(=O)[C@H](CCCNC(=N)N)NC(=O)[C@H](CO)NC(=O)[C@H](Cc1ccccc1)NC(=O)[C@@H](N)CCCNC(=N)N)C(C)C)C(=O)N[C@@H](CO)C(=O)N[C@@H](Cc1ccccc1)C(=O)N[C@@H](CC(N)=O)C(=O)N[C@@H](CC(C)C)C(=O)N[C@@H](CCC(=O)O)C(=O)N1CCC[C@H]1C(=O)N[C@@H](Cc1ccccc1)C(=O)N[C@@H](Cc1ccccc1)C(=O)N[C@@H](CCCCN)C(=O)N[C@@H](Cc1ccccc1)C(=O)O — HC50 (rat erythrocytes; haemolysis; 1 h, 37 °C, 2% erythrocytes in PBS): 2.98 log10 µg/mL
CN(C)CCOc1ccc(/C(=C(/CCCl)c2ccccc2)c2ccccc2)cc1 — LD50 (MRC-5, mock-infected; nuclei count; 96 h): 17.4 µM
Cc1cc2c(c(O)c1O)C(=O)c1c(O)cc(O)cc1C2=O — cell viability (HepaRG co-cultured with HK-2; MTT; 16.67 µM, 48 h; relative to: untreated control): 95.2 ± 13.1%
C[C@H]1CN(c2n[nH]c3nc(N[C@H]4CC[C@H](NS(=O)(=O)CCC(F)(F)F)CC4)ncc23)CCO1 — relative abundance (Dual specificity protein kinase CLK2 (CLK2, Homo sapiens, UniProt P49760); inhibitor, Kinobeads competition profiling; 0.032 µM; relative to: vehicle): 0.95
N=C(N)NCCC[C@H](NC(=O)[C@H](CCCNC(=N)N)NC(=O)[C@H](CCCNC(=N)N)NC(=O)[C@H](CCC(N)=O)NC(=O)[C@H](CCCNC(=N)N)NC(=O)[C@H](CCCNC(=N)N)NC(=O)[C@H](CCCCN)NC(=O)[C@H](CCCCN)NC(=O)[C@H](CCCNC(=N)N)NC(=O)CNC(=O)[C@H](Cc1ccc(O)cc1)NC(=O)CNC(=O)CNC(=O)CNC(=O)c1ccc2c(c1)C(=O)OC21c2ccc(O)cc2Oc2cc(O)ccc21)C(N)=O — transport ratio (hCMEC/D3 monolayers; BBB permeability, Transwell, item: CF-labelled compound; EGM-2 medium; concentration not given, 1 h, apical to basal; relative to: fluorescence added apically): 2%
CN(CC[C@H](Oc1cccc2ccccc12)c1cccs1)N=O — LOAEL (TK6 expressing CYP2B6; micronucleus induction; 24 h, without S9): < 1 µM
O=S(=O)(O)C(F)(F)C(F)(F)C(F)(F)C(F)(F)C(F)(F)C(F)(F)C(F)(F)C(F)(F)F — LDH release (hTERT-RPTEC-OAT1; concentration not given, Transwell, apical-to-basolateral addition): 70.2 mU/mL and 15.9 mU/mL and 72.6 mU/mL and 11.5 mU/mL
Nc1nc(CC(O)c2ccccc2C(F)(F)F)c(Br)c(=O)[nH]1 (stereo not drawn) — CC50 (CRFK; cytotoxicity, MTS): > 100 µM
O=C(O)C(F)(F)C(F)(F)C(F)(F)C(F)(F)C(F)(F)F — LDH release (hTERT-RPTEC-OAT1; concentration not given, Transwell, basolateral-to-apical addition): 19.2 mU/mL and 19.9 mU/mL and 15.1 mU/mL and 21.8 mU/mL
COc1ccc2c(c1OC)C(=O)c1c(cc(C)c(O)c1OC)C2=O — cell viability (HK-2 co-cultured with HepaRG; MTT; 66.67 µM, 48 h; relative to: untreated control): 43.7 ± 1.72%

Some of these lines once more:
CC[C@H](C)[C@H](NC(=O)[C@H](CCSC)NC(=O)[C@H](Cc1c[nH]cn1)NC(=O)[C@@H](NC(=O)[C@H](CC(C)C)NC(=O)[C@H](CO)NC(=O)[C@H](CO)NC(=O)[C@H](CCCCN)NC(=O)[C@H](Cc1ccc(O)cc1)NC(=O)[C@H](CCCCN)NC(=O)[C@H](CC(N)=O)NC(=O)[C@H](CO)NC(=O)[C@H](CCCCN)NC(=O)[C@H](CC(C)C)NC(=O)[C@@H](NC(=O)[C@H](CC(C)C)NC(=O)[C@H](CC(C)C)NC(=O)[C@H](CCSC)NC(=O)[C@H](CCCNC(=N)N)NC(=O)[C@H](CCCCN)NC(=O)[C@H](CCCNC(=N)N)NC(=O)[C@@H](N)Cc1c[nH]c2ccccc12)[C@@H](C)O)C(C)C)C(=O)N[C@@H](CC(C)C)C(=O)NCC(=O)N[C@@H](CC(C)C)C(=O)N[C@@H](CO)C(=O)N[C@@H](CC(C)C)C(=O)N[C@@H](CCC(N)=O)C(=O)N[C@H](C(=O)N[C@@H](CS)C(=O)N[C@@H](CC(C)C)C(=O)N[C@H](C(=O)N[C@@H](CCCCN)C(=O)O)[C@@H](C)O)[C@@H](C)CC — CC50 (HaCaT; cell viability, MTT): 163 µM
Oc1ccc(C(c2ccc(O)cc2)(C(F)(F)F)C(F)(F)F)cc1 — viable cells (HepG2 spheroids, dissociated; annexin V-FITC/PI flow cytometry; 0.10 µM, 96 h): 28.5 ± 8.59%
O=c1ccc2ccccc2o1 — point of departure (HepG2; item: heme oxygenase 1; 6 h): 828 µM
